Results of several laboratories.
Protocols differ between the studies behind these lines. ± marks the error that the study gave.

O=C[C@H](C[C@@H]1CCNC1=O)NC(=O)[C@H](CC1CCCCC1)NS(=O)(=O)c1ccc(Cl)cc1 — EC50 (feline coronavirus; viral replication; CRFK, FIPV-1146; 36 h): 0.39 ± 0.03 µM
O=C(O)COc1ccc(Br)cc1/C=N/NC(=O)CNc1ccc(Cl)cc1 — seizure protection (mouse, PTZ-induced seizures; oral, 20 mg/kg, 0.5 h, together with: PTZ 85 mg/kg i.p.): 40%
CC(C)C[C@H](NC(=O)[C@@H](NC(=O)[C@H](CCCNC(=N)N)NS(=O)(=O)Cc1ccccc1)C(C)C)[C@@H](O)CC(=O)NCCc1ccccc1 — EC50 (Plasmodium falciparum; parasite growth; 3D7; 72 h, blood stage): 7.44 µM
Oc1ccccc1C1=NN(c2ccccc2)C(c2ccc(F)cc2)C1 (stereo not drawn) — EC50 (HeLa; cell viability, MTT; 72 h): > 500 µM
Cc1ccc(C(=O)N/N=C/c2cc(Br)ccc2OCC(=O)O)cc1 — latency to forelimb clonus (mouse, pilocarpine-induced seizures; oral, 20 mg/kg, together with: pilocarpine 300 mg/kg i.p.): 13.8 ± 0.49 min
NCCCN1CC(=O)N(Cc2cc(C(F)(F)F)cc(C(F)(F)F)c2)CC(=O)N(CCCN)CC(=O)N(Cc2cc(C(F)(F)F)cc(C(F)(F)F)c2)CC(=O)N(CCCN)CC(=O)N(Cc2cc(C(F)(F)F)cc(C(F)(F)F)c2)CC1=O — extra electrons per lipid (X-ray reflectivity; DPPG monolayer tails): 283 ± 10
Oc1ccccc1C1=NN(c2ccccc2)C(c2ccc(C(F)(F)F)cc2)C1 (stereo not drawn) — EC50 (MCF7; cell viability, MTT; 72 h): > 500 µM
O=C(O)COc1ccc(Br)cc1C=NNC(=O)Cc1ccccc1 (mixture of isomers) — IL-6 level reduction (ELISA; mouse, pilocarpine epilepsy model, hippocampus; oral, 20 mg/kg; baseline: pilocarpine group): 63%
NCCCN1CC(=O)N(Cc2ccccc2)CC(=O)N(CCCN)CC(=O)N(Cc2ccccc2)CC(=O)N(CCCN)CC(=O)N(Cc2ccccc2)CC(=O)N(CCCN)CC(=O)N(Cc2ccccc2)CC(=O)N(CCCN)CC(=O)N(Cc2ccccc2)CC1=O — extra electrons per lipid (X-ray reflectivity; DPPG monolayer tails): 96 ± 6
N#Cc1ccc(C2CC(c3ccccc3O)=NN2c2ccccc2)cc1 (stereo not drawn) — EC50 (MCF7; cell viability, MTT; 72 h): > 500 µM
O=C(N[C@@H](CC1CCCCC1)C(=O)N[C@@H](C[C@@H]1CCNC1=O)C(O)S(=O)(=O)O)OCc1cccc(Cl)c1 (stereo partly drawn) — EC50 (feline coronavirus; viral replication; CRFK, FIPV-1146; 36 h): 0.05 ± 0.02 µM
CC(C)C[C@@H]1NC(=O)[C@H](CCCN)NC(=O)[C@H](C(C)C)NC(=O)[C@@H]2CCCN2C(=O)[C@@H](Cc2ccccc2)NC(=O)[C@H](CC(C)C)NC(=O)[C@H](CCCN)NC(=O)[C@H](C(C)C)NC(=O)[C@@H]2CCCN2C(=O)[C@@H](Cc2ccccc2)NC1=O — extra electrons per lipid (X-ray reflectivity; DPPG monolayer headgroups): 135 ± 7
CCN(CC)c1ccc(C2CC(c3ccccc3O)=NN2c2ccccc2)cc1 (stereo not drawn) — EC50 (HeLa; cell viability, MTT; 72 h): > 500 µM
O=C(O)COc1ccc(Br)cc1/C=N/NC(=O)c1ccccc1 — relative protection (mouse, PTZ-induced seizures; oral, 20 mg/kg; baseline: valproic acid 300 mg/kg): 100%
NCCCN1CC(=O)N(CC(c2ccccc2)c2ccccc2)CC(=O)N(CCCN)CC(=O)N(CC(c2ccccc2)c2ccccc2)CC(=O)N(CCCN)CC(=O)N(CC(c2ccccc2)c2ccccc2)CC1=O — extra electrons per lipid (X-ray reflectivity; DPPG monolayer tails): 167 ± 8
Oc1ccccc1C1=NN(c2ccccc2)C(c2cccs2)C1 (stereo not drawn) — EC50 (HeLa; cell viability, MTT; 72 h): > 500 µM
NCCCN1CC(=O)N(Cc2ccccc2)CC(=O)N(CCCN)CC(=O)N(Cc2ccccc2)CC(=O)N(CCCN)CC(=O)N(Cc2ccccc2)CC1=O — extra electrons per lipid (X-ray reflectivity; DPPG monolayer tails): 0
O=C1Nc2ccc(S(=O)(=O)Nc3ccccc3)cc2C1=C1CCCC1 — protein level (RAW264.7; Western blot, item: phospho-IκBα; concentration not given, together with: LPS 100 ng/mL, 1 h): no effect
Oc1ccccc1C1=NN(c2ccccc2)C(c2cccc(C(F)(F)F)c2)C1 (stereo not drawn) — EC50 (HeLa; cell growth or viability, MTT; 72 h): > 500 µM
O=C[C@H](C[C@@H]1CCNC1=O)NC(=O)[C@H](CC1CCCCC1)NS(=O)(=O)c1cccc(Cl)c1 — EC50 (feline coronavirus; viral replication; CRFK, FIPV-1146; 36 h): 0.36 ± 0.12 µM
CN(C)c1ccc(C2CC(c3ccccc3O)=NN2c2ccccc2)cc1 (stereo not drawn) — EC50 (HeLa; cell growth or viability, MTT; 72 h): > 500 µM
O=C(O)COc1ccccc1/C=N/NC(=O)CNc1ccc(Cl)cc1 — seizure severity (Racine scale 0-5; male mice, pilocarpine-induced seizures; oral, 20 mg/kg, 0.5 h after pilocarpine, unit not given, together with: pilocarpine 300 mg/kg i.p.; higher = more severe): 3.3 ± 0.48
Oc1ccccc1C1=NN(c2ccccc2)C(c2ccccc2C(F)(F)F)C1 (stereo not drawn) — EC50 (MCF7; cell viability, MTT; 72 h): > 500 µM
CC(C)C[C@H](NC(=O)[C@@H](NC(=O)[C@H](CCONC(=N)N)NC(=O)OCc1ccccc1)C(C)C)[C@@H](O)CC(=O)NCCc1ccccc1 — EC50 (Plasmodium falciparum; parasite growth; 3D7; 72 h, blood stage): 0.69 µM

Repeated from above:
O=C(O)COc1ccccc1/C=N/NC(=O)CNc1ccc(Cl)cc1 — seizure severity (Racine scale 0-5; male mice, pilocarpine-induced seizures; oral, 20 mg/kg, 0.5 h after pilocarpine, unit not given, together with: pilocarpine 300 mg/kg i.p.; higher = more severe): 3.3 ± 0.48
Oc1ccccc1C1=NN(c2ccccc2)C(c2ccccc2C(F)(F)F)C1 (stereo not drawn) — EC50 (MCF7; cell viability, MTT; 72 h): > 500 µM
